Measurements of several laboratories.
Values joined by “and” are separate records of one study, mostly repeats; a detail may differ.
UniProt Q13131, sequence (whole entry, looked up): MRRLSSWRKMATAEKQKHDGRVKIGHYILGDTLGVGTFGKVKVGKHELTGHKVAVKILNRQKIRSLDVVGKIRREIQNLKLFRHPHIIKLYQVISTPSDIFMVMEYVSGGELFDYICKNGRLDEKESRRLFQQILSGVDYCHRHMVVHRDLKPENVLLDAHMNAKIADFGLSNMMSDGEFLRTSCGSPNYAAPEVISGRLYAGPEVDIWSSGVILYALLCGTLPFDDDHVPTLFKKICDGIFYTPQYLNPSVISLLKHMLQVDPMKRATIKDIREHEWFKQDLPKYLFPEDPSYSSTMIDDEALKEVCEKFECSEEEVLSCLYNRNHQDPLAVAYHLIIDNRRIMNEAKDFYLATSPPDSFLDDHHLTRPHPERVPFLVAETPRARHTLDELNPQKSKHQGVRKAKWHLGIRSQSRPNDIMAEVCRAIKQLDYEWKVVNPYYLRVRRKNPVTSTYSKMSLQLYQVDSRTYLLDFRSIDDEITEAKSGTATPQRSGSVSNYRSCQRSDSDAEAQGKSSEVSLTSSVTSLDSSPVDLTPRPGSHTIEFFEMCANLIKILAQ

CC(C)C[C@H](NC(=O)[C@@H](NC(=O)/C=C/c1cccc(F)c1)C(C)C)C(=O)N[C@H](C=O)C[C@@H]1CCCNC1=O  CC50 (A549; cell growth or viability, MTT; 24 h): > 100 µM
CN[C@@H]1C[C@H]2O[C@@](C)([C@@H]1OC)n1c3ccccc3c3c4c(c5c6ccccc6n2c5c31)C(=O)NC4  viability (NCI-H1975; cell growth or viability, MTT; 1.6 µg): 55.7%
OC(c1ccc(F)cc1)C(F)(F)CCN1CCC(O)(c2ccc(Cl)cc2)CC1 (racemic)  efflux ratio (MDR1; MDCK-MDR1; 2 h): 0.84
C=C(C)[C@@]12O[C@@]3(c4ccccc4)O[C@@H]1[C@@H]1[C@@H]4O[C@]4(CO)[C@@H](O)[C@]4(O)C(=O)C(C)=C[C@H]4[C@@]1(O3)[C@H](C)[C@H]2OC(=O)/C=C/C=C/c1ccccc1  IC50 (MT4; cell growth or viability): 8.55 µM and > 5 µM
[2H]c1c([2H])c([C@]2([2H])CCCN2C(=O)C(C)(C)Oc2ccc3cn[nH]c3c2)c([2H])c([2H])c1C([2H])([2H])[2H]  remaining binding (PRKAA1 (Homo sapiens, UniProt Q13131); binding, competition with immobilised ligand; 1 µM): 76%
CCOC(=O)C1=C(CN2CCC[C@@H]2C(=O)Nc2cccc(B(O)O)c2)NC(c2nccs2)=N[C@@H]1c1ccc(F)cc1Br  CC50 (HepDES19; cell growth or viability, MTS; 72 h): 42.5 µM
CC(C)C[C@H](NC(=O)[C@@H](NC(=O)c1ccc(C(F)(F)F)cc1)C(C)C)C(=O)N[C@H](C=O)C[C@@H]1CCCNC1=O  CC50 (A549; cell growth or viability, MTT; 24 h): > 100 µM
CCOC(=O)C1=C(CN2CCC(C(=O)Nc3ccc(B4OC(C)(C)C(C)(C)O4)cc3)C2)NC(c2nccs2)=NC1c1ccc(F)cc1Br (centres unmarked)  CC50 (HepDES19; cell growth or viability, MTS; 72 h): 26.2 µM
CCCCC1CNC2CCc3ccc(OC)cc3C12.Cl (racemic)  Papp A→B (MDCK-MDR1; Caco-2): 29.2 ×10⁻⁶ cm/s
CCCC[C@H](NC(=O)/C=C/c1ccccc1)C(=O)N[C@H](C=O)C[C@@H]1CCCNC1=O  CC50 (A549; cell growth or viability, MTT; 24 h): > 100 µM
CCOC(=O)C1=C(CN2CCC[C@H]2C(=O)Nc2ccc(B(O)O)cc2)NC(c2nccs2)=N[C@@H]1c1ccc(F)cc1Br  CC50 (HepDES19; cell growth or viability, MTS; 72 h): 35.6 µM

A few entries again:
CCOC(=O)C1=C(CN2CCC(C(=O)Nc3ccc(B4OC(C)(C)C(C)(C)O4)cc3)C2)NC(c2nccs2)=NC1c1ccc(F)cc1Br (centres unmarked)  CC50 (HepDES19; cell growth or viability, MTS; 72 h): 26.2 µM
CCCCC1CNC2CCc3ccc(OC)cc3C12.Cl (racemic)  Papp A→B (MDCK-MDR1; Caco-2): 29.2 ×10⁻⁶ cm/s
